Published values from different studies.
Compare with care: the assays were run in different laboratories. “And” joins repeats or separate records; there may be more than shown. ± gives the spread as reported.

For `CN1CCN(C(c2ccccc2)c2ccc(Cl)cc2)CC1` (stereo not drawn), the IC50 was 2.7 ± 1.2 µM (Ebola virus Zaire; HIV/EBOV pseudovirion entry; A549; 48 h).
`COc1cc2c(OCCCN3CCOCC3)c3c(c(-c4ccc5c(c4)OCO5)c2cc1OC)C(=O)OC3` gave an IC50 of 0.107 ± 0.0237 µM (VSV pseudotyped with Ebola virus GP; viral entry, refers to: GFP).
For `NC(=O)c1ncn([C@@H]2O[C@H](CO)[C@@H](O)[C@H]2O)c1O`, the IC50 was over 40 µM (Severe acute respiratory syndrome coronavirus; viral replication, inhibitor; Vero 76).
For `COC(=O)[C@@H](N)Cc1ccc(OP2(=O)CO[C@@H](Cn3ccc(N)nc3=O)CO2)cc1` (stereo partly drawn), the IC50 was 50 µM (cowpox virus; viral replication).
With `COc1cc2c(OC)c3c(c(-c4ccc5c(c4)OCO5)c2cc1OC)C(=O)OC3` the IC50 was 0.171 ± 0.0402 µM (VSV pseudotyped with Ebola virus GP; viral entry, refers to: GFP).
`Nc1ncnc2c([C@@H]3N[C@H](CO)[C@@H](O)[C@H]3O)c[nH]c12` gave an inhibition of 9.6% (Severe acute respiratory syndrome coronavirus; viral replication, inhibitor; Vero 76; 0.1 µM).
For `CN1CCN(C(=O)c2cc3cc(Cl)ccc3[nH]2)CC1`, the IC50 was 20.6 ± 7.9 µM (Marburg virus; HIV/MARV pseudovirion entry; A549; 48 h).
For `Cn1cnc(Cn2c(=O)[nH]/c(=N\c3cc4cn(C)nc4cc3Cl)n(Cc3cc(F)c(F)cc3F)c2=O)n1`, “patients with adverse event” read 0% (human, mild renal impairment; oral, 375 mg, treatment-related dry mouth, Moderate severity).
`CCN(CCO)CCCC(C)Nc1ccnc2cc(Cl)ccc12` (stereo not drawn) gave an IC50 of over 100 µM (SARS-CoV-2 Delta; viral replication; Calu-3; 48 h).
`COC(=O)[C@@H](N)[C@@H](C)OP1(=O)CO[C@@H](Cn2cnc3c(N)ncnc32)CO1` (stereo partly drawn) gave an IC50 of 30 µM (vaccinia virus; viral replication).
`COc1cc2c(O)c3c(c(-c4ccc5c(c4)OCO5)c2cc1OC)C(=O)OC3` has an IC50 of 0.847 ± 0.125 µM (VSV pseudotyped with Ebola virus GP; viral entry, refers to: GFP).
`CNCCOC(c1ccccc1)c1ccccc1` gave an IC50 of 42.5 ± 14.9 µM (Marburg marburgvirus; viral entry; HIV pseudovirions with MARV glycoprotein).
The IC50 of `CCOc1ccc2cc(C(=O)Nc3nc4ccccc4[nH]3)[nH]c2c1` is reported as over 10 µM (SARS-CoV-2 pseudovirus; viral entry; HeLa-ACE2, Delta spike).
With `CC(C)CCCCCCCCCCCCCCCc1cc(O)cc(O)c1` the IC50 was over 200 µM (Bacillus anthracis; 34F2).
`CN(C)CCOC(C)(c1ccccc1)c1ccc(Cl)cc1` (stereo not drawn) gave an IC50 of 1.1 ± 0.5 µM (Ebola virus Zaire; HIV/EBOV pseudovirion entry; A549; 48 h).
With `Cc1ccc(C(=O)Nc2ccc(S(=O)(=O)O)c3cc(S(=O)(=O)O)cc(S(=O)(=O)O)c23)cc1NC(=O)c1cccc(NC(=O)Nc2cccc(C(=O)Nc3cc(C(=O)Nc4ccc(S(=O)(=O)O)c5cc(S(=O)(=O)O)cc(S(=O)(=O)O)c45)ccc3C)c2)c1` the IC50 was 11.9 µM (Human immunodeficiency virus 1; viral entry, inhibitor; Calu-3; pseudovirus).
`CC(C)CCCCCCCCCCCCc1cc(O)cc(O)c1` gave an IC50 of 32.5 µM (Bacillus anthracis; 34F2).
`CC[C@H](C)[C@H](NC(=O)[C@H](CC(C)C)NC(=O)[C@H](Cc1c[nH]c2ccccc12)NC(=O)[C@H](CCC(N)=O)NC(=O)[C@@H](NC(=O)[C@H](Cc1ccccc1)NC(=O)[C@H](C)NC(=O)[C@H](CCCCNC(=O)COCCOCCNC(=O)COCCOCCNC(=O)CC[C@H](NC(=O)CCCCCCCCCCCCCCCCCCC(=O)O)C(=O)O)NC(=O)[C@H](CCC(N)=O)NC(=O)[C@H](C)NC(=O)[C@@H](NC(=O)[C@H](CCCCN)NC(=O)[C@H](CC(=O)O)NC(=O)[C@H](CC(C)C)NC(=O)C(C)(C)NC(=O)[C@@H](NC(=O)[C@H](CO)NC(=O)[C@H](Cc1ccc(O)cc1)NC(=O)[C@H](CC(=O)O)NC(=O)[C@H](CO)NC(=O)[C@@H](NC(=O)[C@H](Cc1ccccc1)NC(=O)[C@@H](NC(=O)CNC(=O)[C@H](CCC(=O)O)NC(=O)C(C)(C)NC(=O)[C@@H](N)Cc1ccc(O)cc1)[C@@H](C)O)[C@@H](C)O)[C@@H](C)CC)[C@@H](C)CC)C(C)C)C(=O)N[C@@H](C)C(=O)NCC(=O)NCC(=O)N1CCC[C@H]1C(=O)N[C@@H](CO)C(=O)N[C@@H](CO)C(=O)NCC(=O)N[C@@H](C)C(=O)N1CCC[C@H]1C(=O)N1CCC[C@H]1C(=O)N1CCC[C@H]1C(=O)N[C@@H](CO)C(N)=O` — result for “subjects with hypoglycaemia”: 0% (refers to: blood glucose ≤70 mg/dL; healthy subjects; 1.5 mg, multiple ascending dose).
`CC(C)CNC(=O)[C@@H](N)Cc1ccc(OP(=O)(O)CO[C@H](CO)Cn2cnc3c(N)ncnc32)cc1` has an IC50 of 0.5 µM (vaccinia virus; viral replication).
`O=c1[nH]c(Nc2cc(Cl)cc(Cl)c2)nc2cccc(O)c12` has an IC50 of under 1.1 µM (Middle East respiratory syndrome-related coronavirus; viral replication; Vero).
For `O=C1Nc2ccccc2/C1=C1\Nc2ccccc2\C1=N/O`, the IC50 was 9.76 µM (SARS-CoV-2 Omicron; viral replication, cell-based).
`COc1cc2c(OC(C)=O)c3c(c(-c4ccc5c(c4)OCO5)c2cc1OC)C(=O)N(CCO)C3=O` gave an IC50 of 5.4 ± 2.92 µM (VSV pseudotyped with Ebola virus GP; viral entry, refers to: GFP; HeLa).
`Cc1cccc(NC(=O)CS(=O)(=O)c2nc(-c3ccccc3)cn2-c2ccc(Cl)cc2)c1C` has an IC50 of 0.4 µM (VSVΔG pseudotyped with SARS-CoV-2 S; pseudovirus infection; Alpha; tested range 0.3125 to 40 µM).
For `COC(=O)[C@@H](N)Cc1ccc(OP2(=O)CO[C@@H](Cn3cnc4c(N)ncnc43)CO2)cc1` (stereo partly drawn), the IC50 was 2 µM and 3 µM (vaccinia virus; viral replication).
`COc1cc2c(OCCCN3CCN(CCO)CC3)c3c(c(-c4ccc5c(c4)OCO5)c2cc1OC)C(=O)OC3` gave an IC50 of 0.0762 ± 0.0146 µM (VSV pseudotyped with Ebola virus GP; viral entry, refers to: GFP).
`CN1CCN(C(c2ccccc2)c2ccccc2)CC1` has an IC50 of 18.9 ± 1.5 µM (Marburg virus; HIV/MARV pseudovirion entry; A549; 48 h).
`NC(=O)c1ncn([C@@H]2O[C@H](CO)[C@@H](O)[C@H]2O)n1` gave an IC50 of 210 µM (Severe acute respiratory syndrome coronavirus; viral replication, inhibitor; Vero 76).
`CC(C)(C)NC(=O)[C@@H](N)Cc1ccc(OP2(=O)CO[C@@H](Cn3ccc(N)nc3=O)CO2)cc1` (stereo partly drawn) gave an IC50 of 10 µM (vaccinia virus; viral replication).
`CC(C)(Nc1nc(N2CCNCC2)nc2ccccc12)c1ccccc1` has an AC50 of 11.2 µM (SARS-CoV-2; cytopathic effect, cell-based CPE; USA_WA1/2020; round 2, 5-point dilution).
The IC50 of `CCOC(=O)CN1CCN(CCCOc2c3c(c(-c4ccc5c(c4)OCO5)c4cc(OC)c(OC)cc24)C(=O)OC3)CC1` is reported as 0.132 ± 0.0323 µM (VSV pseudotyped with Ebola virus GP; viral entry, refers to: GFP).
`CC(=O)O[C@@H]1C[C@H]2O[C@@H]3C=C(C)CC[C@]3(C)[C@]1(C)[C@]21CO1` has an IC50 of 0.529 µM (Candida albicans; biofilm formation, XTT; SC5314; 24 h, 37 °C).
The IC50 of `CN(C)CCOC(C)(c1ccccc1)c1ccccn1` (stereo not drawn) is reported as 14.7 ± 2.1 µM (Ebola virus Zaire; HIV/EBOV pseudovirion entry; A549; 48 h).
`O=C(NC1CCCCC1)C(c1cccs1)N(Cc1ccc2c(c1)OCO2)C(=O)Cc1c[nH]c2ccccc12` (stereo not drawn) has an IC50 of 3.4 µM (Rickettsia canadensis; bacterial growth; Vero).
`N=C(N)c1ccc2cc(OC(=O)c3ccc(N=C(N)N)cc3)ccc2c1` has an inhibition of 10 to 15% (Daboia russelii venom proteases; proteolytic activity, inhibitor; 100 µM, together with: azocasein substrate).
`CC(C)CNC(=O)[C@@H](N)Cc1ccc(OP2(=O)CO[C@@H](Cn3cnc4c(N)ncnc43)CO2)cc1` (stereo partly drawn) has an IC50 of 3 µM (vaccinia virus; viral replication).
`O=C(c1ccc(OCCN2CCCCC2)cc1)c1c(-c2ccc(O)cc2)sc2cc(O)ccc12` gave an IC50 of 1.1 µM (MERS-CoV spike pseudovirus; pseudovirus entry; Huh-7; 24 h).
For `CC(C)(C)c1ccc(CN2CCN(C(c3ccccc3)c3ccc(Cl)cc3)CC2)cc1` (stereo not drawn), the IC50 was 12.3 ± 5 µM (Ebola virus Zaire; HIV/EBOV pseudovirion entry; A549; 48 h).
The IC50 of `COc1cc2c(O)c3c(c(-c4ccc5c(c4)OCO5)c2cc1OC)C(=O)N(N)C3` is reported as 3.94 ± 0.604 µM (VSV pseudotyped with Ebola virus GP; viral entry, refers to: GFP; HeLa).
`CC(=O)N[C@H]1[C@H]([C@H](O)[C@H](O)CO)OC(C(=O)O)=C[C@@H]1N=C(N)N` gave an IC50 of 0.0435 µM (influenza A virus H7N9; viral replication).
With `N#Cc1cn([C@@H]2O[C@H](COCc3ccccc3)[C@@H](OCc3ccccc3)[C@H](OCc3ccccc3)[C@H]2I)c(=O)[nH]c1=O` the IC50 was 4.2 µM (Japanese encephalitis virus; viral replication, inhibitor, ELISA; Vero).
The IC50 of `CC(C)(C(=O)O)c1ccc(C(O)CCCN2CCC(C(O)(c3ccccc3)c3ccccc3)CC2)cc1` (stereo not drawn) is reported as over 100 µM (Ebola virus Zaire; HIV/EBOV pseudovirion entry; A549; 48 h).
`ergoloid mesylates` has an IC50 of 7.95 µM (SARS-CoV-2 Delta; viral replication, NanoLuc reporter virus).
The IC50 of `C#Cc1c(C(N)=O)ncn1[C@@H]1O[C@H](CO)[C@@H](O)[C@H]1O` is reported as over 40 µM (Severe acute respiratory syndrome coronavirus; viral replication, inhibitor; Vero 76).
`CNC(=O)[C@@H](NC(=O)[C@H](CC(C)C)[C@H](O)C(=O)NO)C(C)(C)C` has a remaining activity of 98.4% and 96.9% and 99.1% (Daboia russelii venom proteases (SVMP); protease activity, inhibitor; AP population; 0.1 µM, together with: azocasein substrate; relative to: venom alone).
With `CC1=C[C@H]2O[C@@H]3C[C@H]4OC(=O)/C=C\C=C\C(=O)OCC/C(C)=C/C(=O)OC[C@@]2(CC1)[C@]4(C)[C@]31CO1` the IC50 was 0.0024 µM (Plasmodium falciparum; parasite proliferation, SYBR Green; 3D7; 72 h).
The IC50 of `COC(=O)[C@@H](N)COP1(=O)CO[C@@H](Cn2cnc3c(N)ncnc32)CO1` (stereo partly drawn) is reported as 20 µM (cowpox virus; viral replication).
For `Cc1ncccc1-c1nc2cc(C(=O)NCCCc3ccccc3)ccc2o1`, the efficacy was 51% (SARS-CoV-2; cytopathic effect; USA_WA1/2020; retest, 8-point, duplicates).
`CO/C1=C\C(C)=C\[C@@H](C)[C@@H](O)[C@@H](C)C/C(C)=C/C=C/[C@H](OC)[C@@H]([C@@H](C)[C@@H](O)[C@H](C)[C@@]2(O)C[C@@H](O)[C@H](C)[C@@H](C(C)C)O2)OC1=O` gave an IC50 of 0.0149 ± 0.00893 µM (VSV pseudotyped with Ebola virus GP; viral entry, refers to: GFP).

Some of these lines once more:
`COC(=O)[C@@H](N)[C@@H](C)OP1(=O)CO[C@@H](Cn2cnc3c(N)ncnc32)CO1` (stereo partly drawn) gave an IC50 of 30 µM (vaccinia virus; viral replication).
`COc1cc2c(O)c3c(c(-c4ccc5c(c4)OCO5)c2cc1OC)C(=O)OC3` has an IC50 of 0.847 ± 0.125 µM (VSV pseudotyped with Ebola virus GP; viral entry, refers to: GFP).
`CNCCOC(c1ccccc1)c1ccccc1` gave an IC50 of 42.5 ± 14.9 µM (Marburg marburgvirus; viral entry; HIV pseudovirions with MARV glycoprotein).
The IC50 of `CCOc1ccc2cc(C(=O)Nc3nc4ccccc4[nH]3)[nH]c2c1` is reported as over 10 µM (SARS-CoV-2 pseudovirus; viral entry; HeLa-ACE2, Delta spike).
With `CC(C)CCCCCCCCCCCCCCCc1cc(O)cc(O)c1` the IC50 was over 200 µM (Bacillus anthracis; 34F2).
`CN(C)CCOC(C)(c1ccccc1)c1ccc(Cl)cc1` (stereo not drawn) gave an IC50 of 1.1 ± 0.5 µM (Ebola virus Zaire; HIV/EBOV pseudovirion entry; A549; 48 h).
